Measurements from different studies.
Several values in a cell are separate wells, animals, samples, runs or records. Numbers after ± are the reported error.

Compound	tested on	test	test system	setting	how to read	measurement	value
COc1ccc(C[C@H](NC(=O)[C@H](C)NC(=O)CN2CCOCC2)C(=O)N[C@@H](Cc2ccccc2)C(=O)C2(C)CO2)cc1 (stereo in doubt)	Plasmodium falciparum	parasite growth	K1, chloroquine resistant	72 h, ring stage	–	IC50	< 0.01 µM and 0.0065 µM
Oc1cccc(C2CCCN(CCc3c[nH]c4ccccc34)C2)c1 (stereo not drawn)	Plasmodium yoelii	–	17XL	384-well	–	IC50	> 20 µM
C[C@H]1O[C@@H](O[C@H]2CC[C@@]3(C)[C@@H](CC[C@]4(C)[C@@H]3C=C[C@]35OC[C@@]6(CCC(C)(C)C[C@H]63)[C@@H](O)C[C@]54C)[C@]2(C)CO)[C@H](O)[C@@H](O[C@@H]2O[C@H](CO)[C@@H](O)[C@H](O)[C@H]2O)[C@H]1O	–	histology	AAV8 empty vector mice, liver	dose not given, high dose, normal diet	–	Oil Red O area	0.0444% and 0.0396% and 0.0378%
CCCCCC[C@H]1C(=O)O[C@H](C)[C@H](NC(=O)c2cccc(NC=O)c2O)C(=O)O[C@@H](C)[C@@H]1OC(=O)CC(C)C	Human alphaherpesvirus 2	viral replication	Vero C1008	–	–	IC50	0.012 µM
COC(=O)/C(C#N)=C1\Nc2ccccc2O1	Tetrahymena pyriformis and Klebsiella pneumoniae	virulence in co-culture	–	–	–	IC50	1.78 µM
CC(=O)NCCCC[C@H](NC(C)=O)C(=O)N[C@H](C)C(=O)N[C@H](C)C(=O)O	Enterococcus faecium	cell growth	–	24 h, added: vancomycin 8 µg/mL	–	IC50	137 µM
Cc1[nH]c2ccccc2c1-c1csc(-c2c[nH]c3ccccc23)n1	Human papillomavirus 16	viral replication, Hirt-qPCR	C-33-A	transient E1/E2-dependent ori replication	–	IC50	1 µM
CC[C@H](C)[C@@H]1NC(=O)[C@@H]2CCCN2C(=O)[C@H](CC(C)C)NC(=O)[C@H](CC(C)C)NC(=O)CNC(=O)[C@@H](NC(=O)[C@@H](NC(=O)[C@H](CC(=O)O)NC(=O)CNC(=O)[C@@H](NC(=O)[C@H](C)NC(=O)CNC(=O)[C@H](CCCCN)NC(=O)[C@H](CC(C)C)NC(=O)[C@H](CC(C)C)NC(=O)[C@H](CCCCN)NC(=O)CNC(=O)[C@@H](NC(=O)[C@@H](N)CC(C)C)C(C)C)C(C)C)C(C)C)CSSC[C@@H](C(=O)O)NC1=O	–	RNA-seq, item: Hcst mRNA	mouse traumatic brain injury, frontal cortex and hippocampus	dose not given	reference: TBI plus compound vs TBI	log2 fold change	-2.67
CCCNCCc1c[nH]c2cccc(O)c12.CCCNCCc1c[nH]c2cccc(O)c12.O=C(O)/C=C/C(=O)O	–	–	C57BL/6J mice	subcutaneous, 0.03 mg/kg	–	head twitch count	6.4 ± 0.6
O=C(Nc1nc2ccc(Cl)cc2s1)c1cc(=O)c2ccccc2o1	Tetrahymena pyriformis and Klebsiella pneumoniae	virulence in co-culture	–	–	–	IC50	0.26 µM
O=C(O)/C=C/C(=O)O.Oc1cccc2[nH]cc(CCNC3CCCCC3)c12	–	–	C57BL/6J mice	subcutaneous, 1 mg/kg	–	head twitch count	7.7 ± 1.3
COc1cc(CCC[P+](c2ccccc2)(c2ccccc2)c2ccccc2)c(OC)c2c1OCO2.[I-]	HCC 2998	SRB	–	–	–	LC50	-4.4 log M
Cc1cc(O)cc2c(C3CCN(CC4CCN(C(=O)/C=C/c5ccc(Cl)c(Cl)c5)CC4)CC3)c[nH]c12	Plasmodium yoelii	–	17XL	384-well	–	IC50	> 20 µM
Cc1nnc(SCC(=O)Nc2ccc(Br)cc2)nc1O	Tetrahymena pyriformis and Klebsiella pneumoniae	virulence in co-culture	–	–	–	IC50	2.48 µM
COc1ccc(OC)c(C=CC(=O)NC2CCC(CN3CCC(c4c[nH]c5ccccc45)CC3)CC2)c1 (stereo not drawn)	Plasmodium yoelii	–	17XL	384-well	–	IC50	> 20 µM
C[C@@H](NC(=O)[C@@H](C)NC(=O)[C@H](CCCCNC(=O)c1ccc(S(=O)(=O)F)cc1)NC(=O)c1ccc(S(=O)(=O)F)cc1)C(=O)O	Enterococcus faecium	cell growth	–	24 h, added: vancomycin 8 µg/mL	–	IC50	18.7 µM
COc1ccc2c(c1)CCc1c(C(=O)NCCc3nc4cc(C)ccc4[nH]3)n[nH]c1-2	Tetrahymena pyriformis and Klebsiella pneumoniae	virulence in co-culture	–	–	–	IC50	0.57 µM
O=C(NC1CCC(CN2CCC(c3c[nH]c4ccccc34)CC2)CC1)c1cn(Cc2ccccc2)c2ccccc12 (stereo not drawn)	Plasmodium yoelii	–	17XL	384-well	–	IC50	> 20 µM

A few entries again:
Compound	tested on	test	test system	setting	how to read	measurement	value
Cc1[nH]c2ccccc2c1-c1csc(-c2c[nH]c3ccccc23)n1	Human papillomavirus 16	viral replication, Hirt-qPCR	C-33-A	transient E1/E2-dependent ori replication	–	IC50	1 µM
CC[C@H](C)[C@@H]1NC(=O)[C@@H]2CCCN2C(=O)[C@H](CC(C)C)NC(=O)[C@H](CC(C)C)NC(=O)CNC(=O)[C@@H](NC(=O)[C@@H](NC(=O)[C@H](CC(=O)O)NC(=O)CNC(=O)[C@@H](NC(=O)[C@H](C)NC(=O)CNC(=O)[C@H](CCCCN)NC(=O)[C@H](CC(C)C)NC(=O)[C@H](CC(C)C)NC(=O)[C@H](CCCCN)NC(=O)CNC(=O)[C@@H](NC(=O)[C@@H](N)CC(C)C)C(C)C)C(C)C)C(C)C)CSSC[C@@H](C(=O)O)NC1=O	–	RNA-seq, item: Hcst mRNA	mouse traumatic brain injury, frontal cortex and hippocampus	dose not given	reference: TBI plus compound vs TBI	log2 fold change	-2.67
